Experimental data pooled from the literature.
Protocols differ between the studies behind these lines. ± gives the spread as reported.

Molecule	system	conditions	how to read	measurement	result
C=C(C)[C@@H]1CC[C@]2(NCCN3CCS(=O)(=O)CC3)CC[C@]3(C)[C@H](CC[C@@H]4[C@@]5(C)CC=C(C6=CC[C@@](CF)(C(=O)O)CC6)C(C)(C)[C@@H]5CC[C@]43C)[C@@H]12	human, plasma	oral, 50 to 320 mg daily, 14 days		trough concentration	186 to 980 ng/mL
CO[C@H]1C[C@@H]2CC[C@@H](C)[C@@](O)(O2)C(=O)C(=O)N2CCCC[C@H]2C(=O)O[C@H]([C@H](C)C[C@@H]2CC[C@@H](OCCO)[C@H](OC)C2)CC(=O)[C@H](C)/C=C(\C)[C@@H](O)[C@@H](OC)C(=O)[C@H](C)C[C@H](C)/C=C/C=C/C=C/1C	human patients, plasma	oral, 10 mg once daily, cycle 2 day 1, predose, added: pasireotide		trough concentration	9.2 ng/mL
teicoplanin	human, CrCl below 40 mL/min, serum	intravenous, 400 mg q12h loading, 200 mg/day, day 4		trough concentration	17100 ± 5660 ng/mL
O=C(O)COC[C@H]1CC[C@H](COC(=O)N(c2ccccc2)c2ccc(Cl)cc2)CC1	human, plasma	oral, 70 µg twice daily		trough concentration at steady state	1.79 ng/mL
N[C@@H](CC(=O)O)Cn1nnc(-c2ccc(Oc3ncc(Cl)cc3F)cc2)n1	human, blood	20 mg twice daily, 12 h		trough concentration at steady state	50 to 60 ng/mL
C[C@@H](Oc1ccc(S(C)(=O)=O)cc1C(=O)N1C[C@@H]2C[C@]2(c2cc(C(F)(F)F)on2)C1)C(F)(F)F	human male, CSF	oral, 10 mg once daily, 312 h		trough concentration	9.7 nM
C#C[C@]1(O)CC[C@H]2[C@@H]3CCC4=CC(=O)CC[C@@H]4[C@H]3CC[C@@]21C	human female, serum	oral, 0.35 mg daily, 24 h, day 22, geometric mean, added: atazanavir/ritonavir		trough concentration	0.45 ng/mL
O=C(Nc1c(Cl)cncc1Cl)c1ccc(OC(F)F)c(OCC2CC2)c1	human, age 18 years or older, plasma	topical, 0.3 % cream, week 8, mean		trough plasma concentration	1.72 ng/mL
Cc1ccc([C@@H]2O[C@H](CO)[C@@H](O)[C@H](O)[C@H]2O)cc1Cc1ccc(-c2ccc(F)cc2)s1	human, plasma	oral, day 7	relative to: day 7 over day 16 predose	trough concentration ratio	0.93 to 1

A few entries again:
Molecule	system	conditions	how to read	measurement	result
C[C@@H](Oc1ccc(S(C)(=O)=O)cc1C(=O)N1C[C@@H]2C[C@]2(c2cc(C(F)(F)F)on2)C1)C(F)(F)F	human male, CSF	oral, 10 mg once daily, 312 h		trough concentration	9.7 nM
